Results of several laboratories.
Each line is one published result; not all experiments were run side by side.

Substance	cell line	assay	test system	setting	inhibition
CCN1CCN(CC(=O)Nc2ccc(-c3cccc4c(=O)cc(N5CCOCC5)oc34)c3sc4ccccc4c23)CC1	SW-620	cell growth, SRB	–	1 µM, 120 h	55%
CCN1C(=O)/C(=C\c2ccc(F)cc2)S/C1=N/N=C(\C)c1ccccn1	HEp-2	cell growth or viability, SRB	–	100 µg/mL, 48 h	74%
N#Cc1ccc(-c2csc(NN=Cc3sccc3Br)n2)cc1	HCT-116	colony formation	–	10 µM, 24 h	100%
O=C(NC(=S)Nc1ccc(-c2nc3ccccc3o2)cc1)c1ccc2ccccc2c1	SW-620	colony formation	–	25 µM, 3D culture	65 to 70%
O=C(O)/C=C/c1ccc(-c2ccc(F)c(C34CC5CC(CC(C5)C3)C4)c2)c(Cl)c1	KG-1	cell proliferation	–	5 µM, 48 h	0%
CCn1c(C)c(/N=N/c2ccc(Cl)cc2)s/c1=N/N=C(\C)c1ccccn1	HEp-2	cell growth or viability, SRB	–	100 µg/mL, 48 h	61.6%
COc1ccc2c(c1)CC[C@@H]1[C@@H]2CC[C@]2(C)[C@@H](NCCCCCCN3C(=O)C=CC3=O)CC[C@@H]12	neonatal rat DRG neurons	bradykinin-evoked action potential firing, multielectrode array	–	5 µM, 1 h, together with: 1 µM bradykinin	64.7%
CC12CC3CC(C)(C1)CC(c1cc(-c4ccc(/C=C/C(=O)O)cc4Cl)ccc1O)(C3)C2	KG-1	cell proliferation	–	5 µM, 48 h	0%
GRDGS	B16-F10	cell spreading on fibronectin	peptide	concentration not given, 60 min, together with: fibronectin 4 µg/mL coat	inactive
COc1ccc(/C=C2/S/C(=N/N=C(\C)c3ccccn3)NC2=O)cc1	HEp-2	cell growth or viability, SRB	–	100 µg/mL, 48 h	74.4%
N#Cc1ccc(-c2csc(NN=Cc3ccccc3F)n2)cc1	HCT-116	colony formation	–	5 µM, 24 h	5 to 50%
CCN1C(=O)CS/C1=N/N=C(\C)c1ccccn1	HEp-2	cell growth or viability, SRB	–	100 µg/mL, 48 h	73.2%
Cc1cc(C)c(C=NNc2nc(-c3ccc(C#N)cc3)cs2)c(C)c1	HCT-116	colony formation	–	10 µM, 24 h	100%

A few entries again:
Substance	cell line	assay	test system	setting	inhibition
N#Cc1ccc(-c2csc(NN=Cc3ccccc3F)n2)cc1	HCT-116	colony formation	–	5 µM, 24 h	5 to 50%
